Results pooled from the literature.
Each numbered part is a random draw from the data of one study; scales do not carry over between parts. Positions count from the first letter of the parent shown.

Study 1 — target: CCND2, cyclin fold, Cln2 fusion (human); technique: yeast growth competition, sequencing; matrix: yeast; notes: weak parent motif; relative to: not given; reading: higher = stronger binding
Starting sequence: CDKN1B docking peptide (human); PSACRNLFGPVDH
| Variant | normalised enrichment score |
| --- | --- |
| PSACRNLFGPCDH [V11C] | -0.00446 |
| PSACRNLRGPVDH [F8R] | 0.193 |
| PSACRQLFGPVDH [N6Q] | 0.363 |
| PSACMNLFGPVDH [R5M] | 0.248 |
| PSACRNLFAPVDH [G9A] | 0.228 |
| PSACRNQFGPVDH [L7Q] | 0.0495 |
| PSACRNLHGPVDH [F8H] | 0.183 |
| PSDCRNLFGPVDH [A3D] | -0.129 |
| PSACRNLFGPPDH [V11P] | 0.178 |
| DSACRNLFGPVDH [P1D] | -0.232 |
| PSACRNLGGPVDH [F8G] | -0.298 |
| PSACDNLFGPVDH [R5D] | 0.172 |
| MSACRNLFGPVDH [P1M] | 0.394 |
| PSACRNLFGPVTH [D12T] | 0.468 |
| PSACRNLFGPTDH [V11T] | 0.192 |
| PSACRNLNGPVDH [F8N] | 0.204 |
| PSACRMLFGPVDH [N6M] | 0.214 |
| PSACRNLFGPVLH [D12L] | 0.113 |
| PSACRNLFGPVGH [D12G] | 0.278 |

Study 2 — technique: aptamer microarray, sandwich; molecule type: DNA with 2'F-ANA; matrix: in vitro; concentration: 200 nM; with: Cy3 exosite-II aptamer, 400 nM; reading: higher = stronger binding; strand: GGTTGGTGTGGTTGG
Target: Prothrombin, mature alpha-thrombin (F2, Homo sapiens, UniProt P00734)
Notes: whole 15-mer aptamer, many near background
| Modification | mean fluorescence intensity [a.u.] |
| --- | --- |
| 2'F-ANA at 2 3 4 5 6 10 12 13 15 | 89.5 |
| 2'F-ANA at 4 6 7 8 11 12 | 459 |
| 2'F-ANA at 2 5 7 8 11 12 15 | 123 |
| 2'F-ANA at 2 3 4 6 11 12 13 14 15 | 214 |
| 2'F-ANA at 1 4 6 10 11 12 14 | 48.6 |
| 2'F-ANA at 4 5 10 11 12 15 | 49.4 |
| 2'F-ANA at 2 3 4 7 9 10 11 14 15 | 169 |
| 2'F-ANA at 3 4 5 6 7 14 | 51.3 |
| 2'F-ANA at 1 4 6 7 8 9 10 14 | 45 |
| 2'F-ANA at 2 3 4 5 7 8 10 11 12 14 15 | 51.4 |
| 2'F-ANA at 3 5 6 7 8 10 11 12 15 | 76.7 |
| 2'F-ANA at 1 5 6 9 11 14 15 | 46.1 |
| 2'F-ANA at 2 4 5 6 9 14 15 | 46.5 |
| 2'F-ANA at 2 3 4 6 7 8 9 12 14 15 | 261 |
| 2'F-ANA at 1 3 4 9 11 12 13 15 | 258 |
| 2'F-ANA at 1 2 3 6 7 8 12 15 | 380 |
| 2'F-ANA at 1 2 4 6 7 9 11 14 15 | 47.8 |
| 2'F-ANA at 1 3 4 5 8 9 11 12 13 14 | 47.6 |
| 2'F-ANA at 1 2 3 8 9 11 13 15 | 170 |
| 2'F-ANA at 3 6 8 9 10 11 14 15 | 333 |
| 2'F-ANA at 1 2 4 6 7 8 10 15 | 68 |
| 2'F-ANA at 1 2 3 4 12 13 14 15 | 72.8 |
| 2'F-ANA at 1 3 8 11 14 15 | 93.6 |
| 2'F-ANA at 2 3 4 | 767 |
| 2'F-ANA at 2 5 9 11 13 | 67 |

Study 3 — target: MAFF, bZIP domain (human); technique: DHFR protein complementation; matrix: yeast; relative to: wild-type JUN-FOS pair; reading: higher = stronger binding
Notes: single substitutions, most at no-binding floor
Starting sequence: JUN, bZIP domain (human); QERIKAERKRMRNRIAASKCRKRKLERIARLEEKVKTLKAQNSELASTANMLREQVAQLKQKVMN; partner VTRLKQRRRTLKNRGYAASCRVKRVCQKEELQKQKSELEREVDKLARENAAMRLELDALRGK
| Variant | binding fitness [natural log] |
| --- | --- |
| K36S | -1.48 |
| E44T | -1.44 |
| E54D | -1.47 |
| L45Y | -1.53 |
| T48D | -1.45 |
| M51T | -1.38 |
| S47R | -1.33 |
| E54T | -1.5 |
| Q55A | -1.48 |
| L38K | -1.55 |
| K39V | -1.45 |
| A29D | -1.45 |
| N42F | -1.32 |
| K36R | -1.33 |
| A46P | -1.57 |
| S47A | -1.4 |
| K36W | -1.49 |
| A57E | -1.29 |
| E54Q | -1.59 |
| E54R | -1.45 |
| E32Q | -1.49 |
| S43H | -1.49 |
| A49H | -1.48 |
| A57P | -1.5 |
| A40W | -1.49 |

Study 4 — technique: RNA Bind-n-Seq; molecule type: RNA; matrix: in vitro; concentration: 200 nM; notes: whole 134-nt RNA, ends assumed; with: 150 mM LiCl; relative to: input library; reading: higher = stronger binding; library: 7-deaza-guanosine replaces G
Target: Fragile X messenger ribonucleoprotein 1, C-terminal low-complexity region (Fmr1, Mus musculus, UniProt P35922)
All sequences stand within: GGGAGUUCUACAGUCCGACGAUC … UGGAAUUCUCGGGUGUCAAGG
| Strand | log2 enrichment |
| --- | --- |
| UUCCAACAGUUAUGGGAUCCCAGAACCUGCUCAUGCAUACGCUCAACCUCAGACCACAACUCCUCUACCUGCAGUUUCCGGUUCUCCUGG | 1.42 |
| AGUCCUGUGCUACACAUCGUAUGUACCGAAUCGGGUUUGGGUUUUUUUGGGAAAGGGAAAGUAUUAUGUUACGCCGUUCGGAUCUGCACU | -1.14 |
| ACCAUGCAGGUGGGCAUCUUUGGGAAGUGGGGCAAGGGGGGGAUAGGGAGGGGAGUAACACUUUGGGAACAGGUGGUCCCAGGUCGUUUC | 0.822 |
| UGGGAGGUGGAUUUUGUUUAUUUUUUUAGCUCAUUUCCAGGGGUGGGAAUUUUUUUUUAAUAUGUGUCAAGAAUAAAGUUGUUUUUGAAA | -0.0809 |
| CAAGUCCUGUGCUACACAUCGUAUGUACCGAAUCGGGUUUGGGAAAAAGGGUGGGAAAGUAUUAUGUUACGCCGUUCGGAUCUGCACUUC | -1.37 |
| AGUCCUGUGCUACACAUCGUAUGUACCGAAUCGGGGUUUUGGGUUUUGGUUUUGGGGAAAGUAUUAUGUUACGCCGUUCGGAUCUGCACU | -2.06 |
| CCUCAAGUCCUGUGCUACACAUCGUAUGUACCGAAUCGGGUGGUGGGGUGGGAAAGUAUUAUGUUACGCCGUUCGGAUCUGCACUUCCAG | -0.33 |
| AAGUCCUGUGCUACACAUCGUAUGUACCGAAUCGGGGCCCGGGCCCGGGCCCGGGGAAAGUAUUAUGUUACGCCGUUCGGAUCUGCACUU | -2.33 |

For quick reference, copied from above (study 1):
| Variant | normalised enrichment score |
| --- | --- |
| PSACMNLFGPVDH [R5M] | 0.248 |
| PSACRNLFAPVDH [G9A] | 0.228 |
| PSACRNQFGPVDH [L7Q] | 0.0495 |
| PSACRNLHGPVDH [F8H] | 0.183 |
| PSDCRNLFGPVDH [A3D] | -0.129 |
| PSACRNLFGPPDH [V11P] | 0.178 |
| DSACRNLFGPVDH [P1D] | -0.232 |
| PSACRNLGGPVDH [F8G] | -0.298 |
| PSACDNLFGPVDH [R5D] | 0.172 |
| MSACRNLFGPVDH [P1M] | 0.394 |
| PSACRNLFGPVTH [D12T] | 0.468 |
| PSACRNLFGPTDH [V11T] | 0.192 |
| PSACRNLNGPVDH [F8N] | 0.204 |
